Experimental data gathered from unrelated publications.
Compare with care: the assays were run in different laboratories.
TDP1: Tyrosyl-DNA phosphodiesterase 1 (TDP1, Homo sapiens, UniProt Q9NUW8)
Sequence of UniProt Q9NUW8 (whole entry, looked up): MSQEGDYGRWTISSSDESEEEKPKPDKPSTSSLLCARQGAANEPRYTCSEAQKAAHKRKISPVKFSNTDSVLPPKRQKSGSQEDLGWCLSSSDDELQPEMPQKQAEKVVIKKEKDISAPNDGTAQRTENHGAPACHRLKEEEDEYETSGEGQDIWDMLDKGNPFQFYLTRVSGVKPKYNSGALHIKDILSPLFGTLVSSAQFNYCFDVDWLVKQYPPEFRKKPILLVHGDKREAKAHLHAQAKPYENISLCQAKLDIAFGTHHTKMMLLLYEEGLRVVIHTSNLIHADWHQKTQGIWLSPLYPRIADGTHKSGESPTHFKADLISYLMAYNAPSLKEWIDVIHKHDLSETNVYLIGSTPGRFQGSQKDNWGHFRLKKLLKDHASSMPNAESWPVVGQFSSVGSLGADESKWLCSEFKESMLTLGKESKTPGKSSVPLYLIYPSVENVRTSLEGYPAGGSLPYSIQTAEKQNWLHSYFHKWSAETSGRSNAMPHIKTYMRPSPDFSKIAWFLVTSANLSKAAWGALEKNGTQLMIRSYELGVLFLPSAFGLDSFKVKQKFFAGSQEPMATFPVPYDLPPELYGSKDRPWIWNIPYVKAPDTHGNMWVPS

SMILES	tested on	test	system	conditions	how to read	measurement	value
C=CC(=O)N1[C@@H](c2ccc3c(c2)OCO3)c2[nH]c3ccccc3c2C[C@H]1C(=O)N1CCN(C)CC1	human cyclin E1 N112C-3xFLAG:CDK2	co-IP with TMT proteomics, refers to: PPIB	–	concentration not given	relative to: wild type DMSO	relative co-enrichment	136%
CN1CCCNC(=O)c2cccc(c2)C(=O)NCCCN(C)CCCNc2cccc3c2C(=O)c2cccc(c2C3=O)NCCC1	SAS	RNA-Seq, refers to: EXOSC9 mRNA	–	1 µM, 6 h	relative to: untreated cells	log2 fold change	-0.487
COC1CN([C@H]2CC[C@H]([C@@]3(C)Oc4c(Cl)cc(C(=O)NCc5c(SC)cc(C)[nH]c5=O)c(C)c4O3)CC2)C1	–	RNA-seq, refers to: RYR1 mouse homolog	mouse, HT-1376 xenograft, whole blood	dose not given	relative to: vehicle	log2 fold change	0.0423
Nc1ncc(-c2cc(-c3cnn(CC(F)(F)F)c3)ncc2F)nc1C(=O)NC1CNCC(F)C1 (stereo not shown)	TESK1	KINOMEscan	–	1 µM	relative to: DMSO control	remaining binding	85%
Cc1ncsc1-c1ccc(C(C)NC(=O)C2CC(O)CN2C(=O)C(NC(=O)CCCCCCCCCCN2CCCC(Nc3ncc(Cl)c(Nc4ccccc4S(=O)(=O)C(C)C)n3)C2)C(C)(C)C)cc1 (stereo not shown)	22Rv1	RNA-seq, refers to: UBA6-AS1	–	concentration not given	relative to: DMSO	log2 fold change	-1.46
O=C(O)c1ccc(Nc2c(-c3ccc(CON=Cc4ccc(CN5CCCCC5)cc4)cc3)nc3cc(-c4ccccc4)ccn23)cc1	TDP1	enzyme activity, inhibitor	–	100 µM, unpurified compound	–	inhibition	82.5%
CNS(=O)(=O)Nc1nccc(Cc2c(C)c3ccc(Oc4ncccc4F)cc3oc2=O)c1F	C-33-A	cell viability	–	7 days	–	IC50	250 nM
C=CC(=O)Nc1cccc(Cn2ncc3cnc(Nc4cnn(CCOC)c4)nc32)c1	MYO3B human	binding, KINOMEscan	–	100 nM	lower = stronger binding	percent of control	57%
Cc1ccc(C=NOCc2ccc(-c3nc4cc(-c5ccccc5)ccn4c3Nc3ccc(C(=O)O)cc3)cc2)cc1C	TDP1	enzyme activity, inhibitor	–	100 µM, unpurified compound	–	inhibition	37.9%
Cn1ncc2cc(-c3cncc(Cl)c3N3CCC4(CCNC4=O)CC3)ccc21	LS174T	gene expression, microarray, refers to: TFF1 mRNA	–	concentration not given, 4 h	relative to: untreated cells	log2 fold change	1.78

Repeated from above:
SMILES	tested on	test	system	conditions	how to read	measurement	value
C=CC(=O)N1[C@@H](c2ccc3c(c2)OCO3)c2[nH]c3ccccc3c2C[C@H]1C(=O)N1CCN(C)CC1	human cyclin E1 N112C-3xFLAG:CDK2	co-IP with TMT proteomics, refers to: PPIB	–	concentration not given	relative to: wild type DMSO	relative co-enrichment	136%
